Published values of several laboratories.
Compare with care: the assays were run in different laboratories. ± gives the spread as reported. ≈ marks a conversion by molar mass, not a printed value.

SMILES	test	system	conditions	how to read	measurement	result
O=S(=O)(c1cc(Cl)c(O)c2ncccc12)C1CCCC1		rat Sprague-Dawley male, plasma	oral, 10 mg/kg, 4 h		free concentration	32 nM
O=C(/C=C/c1ccc(O)c(O)c1)O[C@H](Cc1ccc(O)c(O)c1)C(=O)O	UPLC-MS/MS	Wistar rat, microcirculation dysfunction model, plasma	oral, 100 mg/kg Salvia miltiorrhiza stem-leaf extract FS		MRT(0-t)	4.86 ± 1.22 h
Cc1cccc(C)c1OCC(=O)N[C@@H](Cc1ccccc1)[C@@H](O)C[C@H](Cc1ccccc1)NC(=O)[C@H](C(C)C)N1CCCNC1=O	median	HIV patients without HCV, plasma	oral, dose not given, lopinavir/ritonavir 400/100 mg twice daily		AUC(0-12 h)	110000 ng·h/mL
CS(=O)(=O)n1cc2c(n1)CN([C@H]1CO[C@H](c3cc(F)ccc3F)[C@@H](N)C1)C2		healthy male human, plasma	oral, 10 mg once weekly, day 1, fasted, geometric mean		concentration at 168 h	8.8 nM
CC[C@H](C)[C@@H]1NC(=O)[C@H](Cc2ccc(O)cc2)NC(=O)[C@@H](N)CSSC[C@@H](C(=O)N2CCC[C@H]2C(=O)N[C@@H](CC(C)C)C(=O)NCC(N)=O)NC(=O)[C@H](CC(N)=O)NC(=O)[C@H](CCC(N)=O)NC1=O	LC-MS	human urine	9.9 to 385 ng/mL, immediately after addition, attributed to MS signal suppression		level decrease after spiking	50 to 80%
Oc1ccc(C(c2ccc(O)cc2)(C(F)(F)F)C(F)(F)F)cc1	measured: free compound	Hsd:Sprague Dawley rat male, plasma	oral gavage, 110 mg/kg single dose		elimination (k10) half-life	2.36 h
Clc1ccccc1C(c1ccccc1)(c1ccccc1)n1ccnc1	equilibrium dialysis	5 nM CYP26B1 in buffer	1 µM, 12 h, pH 7.4, IC50 assay conditions		unbound fraction	0.43 ± 0.031
COc1cc(/C=C/C(=O)CC(=O)/C=C/c2ccc(O)c(OC)c2)ccc1O	I-125 label, gamma counting	C57BL/6J mouse, cerebellum	IN 10 µg/mouse vs IP 100 µg/mouse, 30 min	relative to: intranasal over intraperitoneal	brain uptake ratio	6.18
O=C(Nc1c(Cl)cncc1Cl)c1ccc(OC(F)F)c(OCC2CC2)c1		human, age 6-11 years, plasma	topical, 0.3% cream once daily, 8 weeks		trough concentration	0.511 ng/mL
C=CC(=C)CCC1(C)C(C)CC(O)C23C(=CC(OC(=O)/C=C/C=C/CCCCC)CC12)C(OC(C)=O)OC3OC(C)=O (stereo not drawn)	haemolysis		100 µM		haemolysis	35.5%
COc1cc(Nc2ncc3c(n2)-c2ccc(Cl)cc2C(c2c(F)cccc2OC)=NC3)ccc1C(=O)O		children, UGT1A1 extensive metabolizers, grade ≥2 toxicity, plasma	oral, 80 mg/m2, day 4, median		trough concentration	530 nM
Cc1ccc(-c2cc(C(F)(F)F)nn2-c2ccc(S(N)(=O)=O)cc2)cc1	equilibrium dialysis	dogs, albumin H2 allele, plasma	4 µM		unbound fraction	1.69 ± 0.19%
Cc1nc(Nc2ncc(C(=O)Nc3c(C)cccc3Cl)s2)cc(N2CCN(CCO)CC2)n1		Sprague-Dawley rat, female, plasma	intraperitoneal, 5 mg/kg, added: rosiglitazone co-dosed		MRT(0-inf)	6.08 ± 2.03 h
C#C[C@]1(CO)O[C@@H](n2cnc3c(N)nc(F)nc32)C[C@@H]1O		human, plasma	oral, 400 mg, single dose, fasted		AUC(0-t)	47.2 µM·h
CCCCN1CCCCC1C(=O)Nc1c(C)cccc1C (stereo not drawn)	convulsant	TASK knockout mouse	intravenous, 3.75, 5 and 6.25 mg/kg, 15 s, ≤5 Hz, peak seizure	relative to: baseline	EEG delta power increase	≥ 7 fold
CC(=O)N[C@@H](CCCCN)C(=O)N[C@@H](CC(C)C)C(=O)N[C@@H](CC(=O)O)C(=O)N[C@@H](CC(C)C)C(=O)N[C@@H](CCCCN)C(=O)N[C@@H](CC(C)C)C(=O)N[C@@H](CC(=O)O)C(=O)N[C@@H](CC(C)C)C(=O)N[C@@H](CCCCN)C(=O)N[C@@H](CC(C)C)C(=O)N[C@@H](CC(=O)O)C(=O)N[C@@H](CC(C)C)C(N)=O		Sprague Dawley rat, knee OA model, synovial fluid	intra-articular		joint residence time	≥ 6 weeks
N#Cc1ccc2c(c1)CCC(=O)c1ccccc1NC2=O	nephelometry	aqueous buffer	30 min, pH 6.5		kinetic solubility	25 to 50 µg/mL (≈ 90.5 to 181 µM)
CN[C@@H]1[C@H](O)[C@H](NC)[C@H]2O[C@]3(O)[C@H](O[C@@H]2[C@H]1O)O[C@H](C)C[C@H]3NC(=O)Cc1cc(Cl)c(OC)cn1	glutathione conjugation	rat liver S9	100 µM, 2 h, pH 7.4, added: glutathione 0.2 mM		parent remaining	81.1%

SMILES	test	system	conditions	how to read	measurement	result
CCCOc1ccc([C@H]2CNC(=O)N2c2ccc3[nH]cnc3c2)cc1		human volunteers fasted, plasma	oral solution, 400 mg single dose, day 1, geometric mean		AUC(0-tlast)	3540 ng·h/mL
O=C(c1cc(Cc2n[nH]c(=O)c3ccccc23)ccc1F)N1CCN(C(=O)C2CC2)CC1		cancer patients	oral, 400 mg twice daily, day 8, added: pegylated liposomal doxorubicin		Cmin	3600 ± 2200 ng/mL
CCN1C(=O)CNc2ncc(-c3ccc(-c4nc[nH]n4)nc3C)nc21		human, plasma	oral, 10 mg twice daily, multiple doses		AUC(0-12h)	383 ng·h/mL
CC(=O)c1nn(CC(=O)N2C[C@H](F)C[C@H]2C(=O)Nc2cccc(Br)n2)c2ccc(-c3cnc(C)nc3)cc12		Dutch Belted rabbit, plasma	oral, 15 mg/kg single dose		mean residence time (0-t)	5.58 h
C[C@@H](c1ncncc1F)[C@](O)(Cn1cncn1)c1ccc(F)cc1F		patients, hematological disorders, CYP2C19 IM with PPI or PM without PPI, plasma	200 mg, 12 h, steady state, median, combined score 4		trough concentration	2960 ng/mL
CC(C)NC[C@@H](C(=O)N1CCN(c2ncnc3c2[C@H](C)C[C@H]3O)CC1)c1ccc(Cl)cc1		human, Healthy hepatic function, plasma	oral, 100 mg single dose, NCI classification, geometric mean		AUC(0-∞)	337 ng·h/mL
CS(=O)(=O)Nc1ccc(C(=O)O[C@@H](Cc2c(Cl)c[n+]([O-])cc2Cl)c2ccc(OC(F)F)c(OCC3CC3)c2)cc1OCC1CC1		human, plasma	inhalation, 2000 µg twice daily, day 1, geometric mean		AUC(0-12h)	8.14 ng·h/mL
CCC(=O)O[C@]1(C(=O)SCF)[C@H](C)C[C@H]2[C@@H]3C[C@H](F)C4=CC(=O)C=C[C@]4(C)[C@@]3(F)[C@@H](O)C[C@@]21C		rat	intravenous, 90 nmol/kg		blood clearance	192 mL/min/kg
C[C@]12CC[C@@H]3c4ccc(OS(=O)(=O)O)cc4CC[C@H]3[C@@H]1CCC2=O		BME-UV cell monolayer on Transwell	100 µM, 4 h, basolateral to apical	relative to: support alone over monolayer	permeation rate constant ratio	≥ 30
Cc1c2c(n(-c3ccc(F)cc3Cl)c1-c1ccc(OS(=O)(=O)CCC(F)(F)F)cc1)CCN(N1CCCCC1)C2=O	LC-MS/MS	cynomolgus monkey 3, plasma	intravenous infusion, 0.4 mg/kg, 90 min, total concentration mid-point of PET		plasma concentration	245 nM
S=C(NCCCc1c[nH]cn1)NCCCN(Cc1ccc(Cl)c(Cl)c1)c1ccc(Br)cn1		male C57BL/6 mice, plasma	intraperitoneal, 30 mg/kg, 0.083 h		plasma concentration	1820 ng/mL
CNc1nc(Nc2ccc(-n3cnc(C)n3)c(OC)c2)nc2c1CC[C@H]2c1ccc(F)cc1		human, plasma	oral, 300 mg, single dose, fed		AUC(0-t)	19400 ng·h/mL
CC1(C)S[C@@H]2[C@H](NC(=O)[C@H](N)c3ccc(O)cc3)C(=O)N2[C@H]1C(=O)O		male ICR mouse, plasma	oral, 3 mg/kg, 24 h		AUC	3420 ng·h/mL
C[C@H](Oc1ccc(-c2nc(-c3ccc4[nH]cnc4c3)no2)cc1C(F)(F)F)C(F)(F)F		cynomolgus monkey, aneurysm model, plasma	0.1 mg/kg once daily, 2 h post-dose, 12 months dosing		plasma concentration	13 ± 2.1 nM
C[N+]1(CC(=O)OC2CCCCCCCCC2)CCCCC1.[I-]		phosphate buffer with 2% DMSO	90 min, pH 7.4, theoretical maximum 200 µM		aqueous solubility	181 µM
Cc1nc2cccc(OCC(C)(C)C(=O)NC(C)C)c2c(N)c1C(=O)O		female Sprague-Dawley rat, plasma	oral, 10 mg/kg, single dose		half-life	1.17 h
CCCC[C@H](NC(C)=O)C(=O)N[C@H]1CCC(=O)NC[C@@H](C(=O)N[C@@H](Cc2c[nH]c3ccccc23)C(N)=O)NC(=O)[C@H](CCCNC(=N)N)NC(=O)[C@@H](Cc2ccccc2)NC(=O)[C@H](Cc2c[nH]cn2)NC1=O		beagle dog, male, plasma	subcutaneous, 8.0 mg/kg daily, day 14		AUC(0-last)	1200 ng·h/mL
CN1CCN(c2ccc3nc(-c4c(N)c5c(F)cccc5[nH]c4=O)[nH]c3c2)CC1		NOD/SCID mice, male, blood or plasma	oral, 30 mg/kg once daily, 24 h		Cmin	41.2 ± 9.3 ng/mL

Some of these lines once more:
SMILES	test	system	conditions	how to read	measurement	result
C=CC(=C)CCC1(C)C(C)CC(O)C23C(=CC(OC(=O)/C=C/C=C/CCCCC)CC12)C(OC(C)=O)OC3OC(C)=O (stereo not drawn)	haemolysis		100 µM		haemolysis	35.5%
C[C@]12CC[C@@H]3c4ccc(OS(=O)(=O)O)cc4CC[C@H]3[C@@H]1CCC2=O		BME-UV cell monolayer on Transwell	100 µM, 4 h, basolateral to apical	relative to: support alone over monolayer	permeation rate constant ratio	≥ 30
CS(=O)(=O)Nc1ccc(C(=O)O[C@@H](Cc2c(Cl)c[n+]([O-])cc2Cl)c2ccc(OC(F)F)c(OCC3CC3)c2)cc1OCC1CC1		human, plasma	inhalation, 2000 µg twice daily, day 1, geometric mean		AUC(0-12h)	8.14 ng·h/mL
Cc1ccc(-c2cc(C(F)(F)F)nn2-c2ccc(S(N)(=O)=O)cc2)cc1	equilibrium dialysis	dogs, albumin H2 allele, plasma	4 µM		unbound fraction	1.69 ± 0.19%
